Results gathered from unrelated publications.
Each line is one published result; not all experiments were run side by side. Values joined by “and” are separate records of one study, mostly repeats; a detail may differ. ± gives the spread as reported.
TDP1: Tyrosyl-DNA phosphodiesterase 1 (TDP1, Homo sapiens, UniProt Q9NUW8)
Sequence of UniProt Q9NUW8 (whole entry, looked up): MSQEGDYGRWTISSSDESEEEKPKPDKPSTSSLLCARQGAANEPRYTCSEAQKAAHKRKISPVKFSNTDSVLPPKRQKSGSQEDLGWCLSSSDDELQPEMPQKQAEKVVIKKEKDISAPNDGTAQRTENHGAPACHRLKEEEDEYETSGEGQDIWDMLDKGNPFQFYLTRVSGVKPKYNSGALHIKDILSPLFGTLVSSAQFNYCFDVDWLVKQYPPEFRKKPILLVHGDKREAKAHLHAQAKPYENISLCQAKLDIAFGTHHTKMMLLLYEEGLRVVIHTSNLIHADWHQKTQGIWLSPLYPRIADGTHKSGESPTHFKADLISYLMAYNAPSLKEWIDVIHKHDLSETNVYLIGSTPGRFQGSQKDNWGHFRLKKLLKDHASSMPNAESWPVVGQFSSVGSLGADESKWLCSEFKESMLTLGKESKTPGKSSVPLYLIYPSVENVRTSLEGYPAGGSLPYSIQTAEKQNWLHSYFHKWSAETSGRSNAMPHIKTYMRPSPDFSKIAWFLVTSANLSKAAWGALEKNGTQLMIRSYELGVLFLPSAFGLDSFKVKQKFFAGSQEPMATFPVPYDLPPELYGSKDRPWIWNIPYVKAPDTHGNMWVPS

SMILES = Cc1cc(NC(=O)[C@H](O)c2cc(F)cc(F)c2)ccc1-c1cnc(N)c(C(=O)NC(C)C)c1; system = female nude mouse, plasma; setting = oral, 10 mg/kg, single dose; endpoint = half-life; result = 2.1 h
SMILES = C/C(N)=N/C(=N\S(=O)(=O)c1ccc(C(F)(F)F)cc1)N1C[C@H](c2ccccc2)C(c2ccc(Cl)cc2)=N1; system = male C57BL/6 mouse, plasma; setting = oral, 10 mg/kg; endpoint = Cmax; result = 1300 ng/mL
SMILES = C=CC(=O)Nc1cc(Nc2nccc(-c3cn(C)c4ccccc34)n2)c(OC)cc1N(C)CCNC; assay = storage stability; system = human plasma; setting = 30 d, -80 °C, LQC level; endpoint = recovery; result = 95.6%
SMILES = CCCCN1C(=O)c2cccc3c(NCCCN4CCOCC4)ccc(c23)C1=O; system = toluene; endpoint = emission maximum; result = 494 nm
SMILES = C=C(NC(=O)c1csc(-c2nc3c(cc2O)-c2nc(cs2)C(=O)NC(C(C)O)C(=O)NC(=C(C)OC)c2nc(cs2)C(=O)NC2c4nc(cs4)C(=O)NC(COC(=O)c4c5c6c(cccc6n4O)COC(=O)C(OC4CC(C)(O)C(N(C)C)C(C)O4)C2OC5)c2nc-3cs2)n1)C(N)=O (centres unmarked); system = Sprague-Dawley rat, both sexes, plasma; setting = intravenous infusion, 2 mg/kg single dose; endpoint = AUC(0-last); result = 855 ± 150 ng·h/mL
SMILES = CCCCN1C(=O)c2cccc3c(NCCN4CCOCC4)ccc(c23)C1=O; system = toluene; endpoint = emission maximum; result = 497 nm
SMILES = CN[C@H]1CC[C@H]([C@@]2(C)Oc3c(Cl)cc(C(=O)NCc4c(C)cc(C)[nH]c4=O)c(C)c3O2)CC1; system = healthy men, urine and feces; setting = oral, 200 mg [14C]-valemetostat; how to read = baseline: dose; endpoint = excretion; result = 1.64%
SMILES = Cc1nc(N)nc2c1C(=O)N[C@@H](c1ccc(F)cc1-c1cccc(O[11CH3])n1)C2; assay = ex vivo biodistribution; system = mice, MDA-MB-231 subcutaneous xenograft, blood; setting = 60 min post-injection, baseline, vehicle pre-treatment; endpoint = SUV; result = 0.6 ± 0.01
SMILES = CC(C)(c1cc(Br)c(O)c(Br)c1)c1cc(Br)c(O)c(Br)c1; system = whole cow milk; setting = 200 nM nominal; endpoint = dose fraction in skim milk; result = 44.3%
SMILES = CN(C)C(=O)c1cccc(N2Cc3cn(Cc4cccc(C(F)(F)F)c4)nc3C2)c1; assay = metabolic stability; system = rat, liver microsomes; endpoint = half-life; result = 0.55 h
SMILES = CCCCN1C(=O)c2cccc3c(NCCCCCN4CCOCC4)ccc(c23)C1=O; system = toluene; endpoint = emission maximum; result = 498 nm
SMILES = COc1ccnc(C(=O)N[C@H]2COC(=O)[C@H](Cc3ccccc3)[C@@H](OC(=O)C(C)C)[C@H](C)OC2=O)c1O; assay = soil adsorption; system = clay soil; setting = pH 7.6, organic carbon 1.7 %; endpoint = Freundlich coefficient KF; result = 120 mL/g
SMILES = O=C(Nc1cnccc1-c1ccc([18F])nc1)c1ccnc(NC(=O)C2CC2)c1; system = FVB/NJ mice (both sexes), skin; setting = intravenous, dose not given, 120 min, together with: tariquidar 15 mg/kg i.v. pre-dose; endpoint = SUV; result = 0.127
SMILES = Cc1cc(-c2ccc(C(=O)[C@@H]3CCCC[C@H]3C(=O)Nc3cnn4c3C(=O)NCC4)cc2)[nH]n1; system = human, urine; setting = oral, 200 mg, 0-72 h; how to read = baseline: dose; endpoint = cumulative recovery of radioactivity; result = 5.8%
SMILES = CCCCN1C(=O)c2cccc3c(NCCCCN4CCOCC4)ccc(c23)C1=O; system = water; setting = pH 6.0; endpoint = emission maximum; result = 554 nm
SMILES = CC(=O)N[C@@H](CC[S+](C)[Ru-4]123([S+](C)CC[C@H](NC(C)=O)C(=O)O)[n+]4ccc5ccccc5c4Nc4cccc([n+]41)-c1cccc([n+]12)Nc1c2ccccc2cc[n+]13)C(=O)[O-].F[P-](F)(F)(F)(F)F (some centres unmarked); system = DMSO; setting = -20 °C; endpoint = time to degradation; result = 16 h
SMILES = O=C([O-])CN1CCN(CC(=O)[O-])CCN(C(CO)C(O)CO)CCN(CC(=O)[O-])CC1.[Dy+3] (centres unmarked); system = cynomolgus monkey, liver; setting = dose not given, day 58, PK group; endpoint = lanthanide tissue concentration; result = 0.29 ± 0.09 nmol/g
SMILES = CC(C)(O)c1ncc([S@](N)(=O)=NC(=O)Nc2c3c(cc4c2CCC4)CCC3)s1; assay = refers to: general and administration-site disorders; system = healthy human volunteers; setting = oral, 100 mg once daily, 14 days, spray-dried dispersion; endpoint = subjects with adverse events; result = 50%
SMILES = O=C(c1ccccc1)N1C(c2ccc(OCC3CCN(CCCF)C3)cc2)c2ccc(O)cc2CC12CC2 (centres unmarked); system = C57BL/6J mouse, plasma; setting = intraperitoneal, 25 mg/kg; endpoint = Cmax; result = 4420 ng/mL
SMILES = O=C(NS(=O)(=O)c1cccs1)c1cc2ccccc2n1Cc1ccc(Br)c2ccccc12; system = KM mouse, chronic hyperuricaemia model; setting = dose not given, day 27; endpoint = body weight; result = 36.5 g and 40.7 g and 37.8 g and 38.2 g and 39 g and 38.4 g
SMILES = Cc1[nH]nc2c1N=C(c1ccccc1Cl)c1cnc(N3CCOCC3)cc1N2; system = nude mouse, HCC1806 xenograft, plasma; setting = oral, 15 mg/kg once daily; endpoint = AUC(0-last); result = 2900 ng·h/mL
SMILES = O=C(NCC(F)(F)F)c1cccc(N2Cc3cn(Cc4ccc(F)cc4)nc3C2)c1; assay = metabolic stability; system = rat, liver microsomes; endpoint = half-life; result = 1.53 h
SMILES = O=C(Nc1cnccc1-c1ccc([18F])cc1)c1ccnc(NC(=O)C2CC2)c1; assay = ex vivo gamma counting; system = GSK-3β transgenic mice, late-stage, hippocampus; setting = intravenous, 120 min, mean, P-gp inhibitor pretreatment, together with: tariquidar 15 mg/kg iv; endpoint = SUV; result = 0.24
SMILES = Cc1cnc2nc1Nc1cccc(c1)COC/C=C/COCc1cc(ccc1OCCN1CCOCC1)N2; system = BALB/c mice, rhEPO-induced polycythemia; setting = 100 mg/kg, day 0; endpoint = body weight; result = 18.2 g and 17.9 g and 18.6 g and 19 g and 18.1 g and 19.1 g
SMILES = O=C(O)c1ccc(Nc2c(-c3ccccc3)nc3ccc(CON=CC(=CNc4ccc(Cl)cn4)c4nc5ccccc5o4)cn23)cc1; target or system = TDP1; assay = enzyme activity, inhibitor; setting = 100 µM, unpurified compound; endpoint = inhibition; result = 57.6%
SMILES = CCC(CC)CNC(=N)NC(=N)NCCCCCCNC(=N)NC(=N)NCC(CC)CC; assay = metabolic stability; system = monkey, hepatocytes; setting = 1 µM; endpoint = hepatocyte CLint; result = 8.22 µL/min/10⁶ cells
SMILES = COc1cccc(OC)c1-c1cc(C(=O)NC2(C(=O)O)C3CC4CC(C3)CC2C4)nn1-c1ccc(C(=O)N(C)CCOCCOCCN(C)C(=O)[C@H](CCCCNC(=O)[C@H](CC(C)C)NC(=O)C2OC2C(=O)O)NC(=O)CN2CCN(CC(=O)[O-])CCN(CC(=O)[O-])CCN(CC(=O)[O-])CC2)cc1C(C)C.[177Lu+3] (mixture of isomers); system = mouse HT-29 xenograft; setting = 24 h, biodistribution; how to read = baseline: tumour over pancreas; endpoint = tumour-to-pancreas ratio; result = 16.9
SMILES = O=C(O)CCCOc1ccc([18F])cc1-c1cc(-c2ccccc2C(F)(F)F)n(-c2ccccc2)n1; assay = OLINDA/EXM from mouse data; system = human adults, ovaries; endpoint = absorbed dose; result = 11.6 µGy/MBq
SMILES = Cc1ccc(CN2C(=O)/C(=N\c3ccc(Cl)cc3Br)c3ccccc32)cc1; system = mouse, blood; setting = 150 mg/kg; endpoint = RDW; result = 15.4 ± 0.17%
SMILES = C[C@]12C[C@H](c3ccc(S(C)(=O)=O)cc3)C3=C4CCC(=O)C=C4CC[C@H]3[C@@H]1CC[C@@]2(O)C(F)(F)C(F)(F)F; assay = refers to: compound (parent); system = healthy human volunteers, pooled plasma; setting = oral, 5 mg daily, day 28, 6 h; endpoint = plasma concentration; result = 22.1 ng/mL
SMILES = CC(=O)N([O-])CCCCCNC(=O)CCC(=O)N([O-])CCCCCNC(=O)CCC(=O)N([O-])CCCCCN.[89Zr+4]; system = mouse, brain; setting = 4 h; endpoint = tracer uptake; result = 0.01 %ID/g
SMILES = COc1cccc(OC)c1-c1cc(C(=O)NC2(C(=O)O)C3CC4CC(C3)CC2C4)nn1-c1ccc(C(=O)NCCNC(=O)[C@H](CCCCNC(=O)[C@H](CC(C)C)NC(=O)C2OC2C(=O)O)NC(=O)CN2CCN(CC(=O)[O-])CCN(CC(=O)[O-])CCN(CC(=O)[O-])CC2)cc1C(C)C.[177Lu+3] (mixture of isomers); system = mouse HT-29 xenograft; setting = 168 h, biodistribution; how to read = baseline: tumour over spleen; endpoint = tumour-to-spleen ratio; result = 2.72
SMILES = O=S(=O)(NCc1ccncc1)c1ccc(C2CCCCC2)cc1; system = CK mouse; setting = 0.3 mg/kg; how to read = baseline: vehicle; endpoint = open field speed change; result = 3 ± 1 cm/s
SMILES = CC[C@H](C)[C@@H]1NC(=O)[C@H](Cc2ccc(O)cc2)NC(=O)CSC[C@@H](C(N)=O)NC(=O)[C@H](CC(N)=O)NC(=O)[C@H](Cc2c[nH]cn2)NC(=O)[C@H](Cc2ccc(O)cc2)NC(=O)[C@H](CC(=O)O)NC(=O)[C@H](Cc2ccc(F)c(F)c2)NC(=O)[C@H](CC(C)C)NC(=O)[C@H](CCCNC(=N)N)NC1=O; assay = PAMPA; setting = 200 µM, 5 h, pH 7.4; endpoint = membrane retention; result = -0.02%
SMILES = O=c1cc(/C=C/c2ccc(N(c3ccccc3)c3ccccc3)cc2)oc(/C=C/c2ccc(N(c3ccccc3)c3ccccc3)cc2)c1; system = acetonitrile; setting = 10 µM, 298 K; endpoint = emission maximum; result = 562 nm
SMILES = Cc1ccc(OCC(=O)N(Cc2cccs2)c2ccn[nH]2)cc1; system = rabbit liver microsomes; setting = 10 µM, 60 min, without NADPH; endpoint = remaining compound; result = 2.76%
SMILES = COc1ccc(CNc2nc([C@H]3CC[C@H](C(=O)O)CC3)nc3sc4ccccc4c23)cc1Cl; system = NSG mice; setting = dose not given, day 3; endpoint = body weight; result = 22.1 g and 19.1 g and 21.8 g and 21.6 g
SMILES = CCCCN1C(=O)c2cccc3c(NCCCCCCCCCCN4CCOCC4)ccc(c23)C1=O; system = ethyl acetate; endpoint = emission maximum; result = 512 nm
SMILES = COc1ccc(F)cc1C(=O)NCc1ccc(-c2nn([C@@H](C)C(F)(F)F)c(N)c2C(N)=O)cc1; system = human; setting = intravenous, 22 µg; endpoint = hepatic clearance; result = 1.57 L/h
SMILES = COc1cccc(OC)c1-c1cc(C(=O)NC2(C(=O)O)C3CC4CC(C3)CC2C4)nn1-c1ccc(C(=O)N(C)CCOCCN(C)C(=O)[C@H](CCCCNC(=O)[C@H](CC(C)C)NC(=O)C2OC2C(=O)O)NC(=O)CN2CCN(CC(=O)[O-])CCN(CC(=O)[O-])CCN(CC(=O)[O-])CC2)cc1C(C)C.[177Lu+3] (mixture of isomers); system = mouse HT-29 xenograft; setting = 24 h, biodistribution; how to read = baseline: tumour over pancreas; endpoint = tumour-to-pancreas ratio; result = 6.01
SMILES = Cc1nn(C)c(Oc2cccc(C(F)(F)F)c2)c1C=NOCc1ccc2nc(-c3ccccc3)c(Nc3ccc(C(=O)O)cc3)n2c1 (mixture of isomers); target or system = TDP1; assay = enzyme activity, inhibitor; setting = 100 µM, unpurified compound; endpoint = inhibition; result = -1.5%
SMILES = [123I]c1ccc2nc(-c3ccc(-n4ccnn4)nc3)cn2c1; system = male Wistar rat, spleen; setting = intravenous, 4 MBq, 30 min; endpoint = tracer uptake; result = 0.291 %ID/g
SMILES = CCCC[C@H](NC(=O)CNC(=O)CNC(=O)[C@H](CCCCNC(=O)[C@H](CC(=O)O)NC(=O)C(C)c1ccc(CC(C)C)cc1)NC(=O)CN1CCN(CC(=O)O)CCN(CC(=O)O)CCN(CC(=O)O)CC1)C(=O)N[C@H]1CC(=O)NCCCC[C@@H](C(N)=O)NC(=O)[C@H](Cc2c[nH]c3ccccc23)NC(=O)[C@H](CCCNC(=N)N)NC(=O)[C@@H](Cc2ccccc2)NC(=O)[C@H](Cc2c[nH]cn2)NC1=O (some centres unmarked) [lutetium-177 labelled]; system = C57 mouse, urine; setting = intravenous, 0.037 MBq, 24 h; endpoint = excretion; result = 88.1 ± 2.92%
SMILES = C=C[C@]1(C)C[C@@H](OC(=O)CSc2ccc(NC(=O)c3ccco3)cc2)[C@]2(C)[C@H](C)CC[C@]3(CCC(=O)[C@H]32)[C@@H](C)[C@@H]1O; system = Mycoplasma gallisepticum-infected chickens, plasma; setting = intramuscular, 5 mg/kg, 6 h; endpoint = plasma concentration; result = 64.6 ng/mL and 19.7 ng/mL and 62.5 ng/mL and 43.8 ng/mL and 26 ng/mL and 78.1 ng/mL and 75 ng/mL and 21.6 ng/mL

For quick reference, copied from above:
SMILES = COc1ccc(CNc2nc([C@H]3CC[C@H](C(=O)O)CC3)nc3sc4ccccc4c23)cc1Cl; system = NSG mice; setting = dose not given, day 3; endpoint = body weight; result = 22.1 g and 19.1 g and 21.8 g and 21.6 g
SMILES = CCCCN1C(=O)c2cccc3c(NCCCCCCCCCCN4CCOCC4)ccc(c23)C1=O; system = ethyl acetate; endpoint = emission maximum; result = 512 nm
SMILES = COc1ccc(F)cc1C(=O)NCc1ccc(-c2nn([C@@H](C)C(F)(F)F)c(N)c2C(N)=O)cc1; system = human; setting = intravenous, 22 µg; endpoint = hepatic clearance; result = 1.57 L/h
SMILES = COc1cccc(OC)c1-c1cc(C(=O)NC2(C(=O)O)C3CC4CC(C3)CC2C4)nn1-c1ccc(C(=O)N(C)CCOCCN(C)C(=O)[C@H](CCCCNC(=O)[C@H](CC(C)C)NC(=O)C2OC2C(=O)O)NC(=O)CN2CCN(CC(=O)[O-])CCN(CC(=O)[O-])CCN(CC(=O)[O-])CC2)cc1C(C)C.[177Lu+3] (mixture of isomers); system = mouse HT-29 xenograft; setting = 24 h, biodistribution; how to read = baseline: tumour over pancreas; endpoint = tumour-to-pancreas ratio; result = 6.01
